Measurements from different studies.
Each line is one published result; not all experiments were run side by side. ± marks the error that the study gave.

Structure (SMILES) | target or system | assay | test system | setting | scale | quantity | value
COC1CN([C@H]2CC[C@H]([C@@]3(C)Oc4c(Cl)cc(C(=O)NCc5c(SC)cc(C)[nH]c5=O)c(C)c4O3)CC2)C1 |  | RNA-seq, item: MTSS2 | human, whole blood | dose not given, 24 h | reference: pretreatment baseline | log2 fold change | 1.88
O=C(N/N=C/c1cc[n+](CC2CC2)c2ccccc12)c1ccc2ccc3ccc(C(=O)N/N=C/c4cc[n+](CC5CC5)c5ccccc45)nc3c2n1 | MYC parallel G4 DNA | FRET melting |  | 1 µM, DNA 0.2 µM, together with: duplex DNA competitor 10 µM |  | ΔTm | 9.6 ± 0.3 °C
CNS(=O)(=O)Nc1nccc(Cc2c(C)c3ccc(Oc4ncccc4F)cc3oc2=O)c1F | Caco-2 | cell viability |  | 7 days |  | IC50 | 295 nM
C=CC(=O)N1[C@@H](c2ccc3c(c2)OCO3)c2[nH]c3ccccc3c2C[C@H]1C(=O)N1CCN(C)CC1 | human cyclin E1 wild type-3xFLAG:CDK2 | co-IP with TMT proteomics, item: TUBB |  | concentration not given, P07437 | reference: wild type DMSO | relative co-enrichment | 112%
C[n+]1cc(/C=N/NC(=O)C(=O)N/N=C/c2cc3ccccc3[n+](C)c2)cc2ccccc21 | MYC parallel G4 DNA | FRET melting |  | 1 µM, DNA 0.2 µM |  | ΔTm | 3.3 ± 0.7 °C
C=CC(=O)Nc1cccc(Cn2ncc3cnc(Nc4cnn(CCOC)c4)nc32)c1 | PLK3 human | binding, KINOMEscan |  | 100 nM | lower = stronger binding | percent of control | 100%
Nc1ncc(-c2cc(-c3cnn(CC(F)(F)F)c3)ncc2F)nc1C(=O)NC1CNCC(F)C1 (stereo not drawn) | PFTK1 | KINOMEscan |  | 1 µM | reference: DMSO control | remaining binding | 98%
Cc1ncsc1-c1ccc(C(C)NC(=O)C2CC(O)CN2C(=O)C(NC(=O)CCCCCCCCCCN2CCCC(Nc3ncc(Cl)c(Nc4ccccc4S(=O)(=O)C(C)C)n3)C2)C(C)(C)C)cc1 (stereo not drawn) | 22Rv1 | RNA-seq, item: SOGA1 mRNA |  | concentration not given | reference: DMSO | log2 fold change | -1.39
O=C(N/N=C/c1ccc(C[n+]2ccccc2)cc1)c1cc(C(=O)N/N=C/c2ccc(C[n+]3ccccc3)cc2)ncn1 | MYC parallel G4 DNA | FRET melting |  | 1 µM, DNA 0.2 µM |  | ΔTm | 2.3 ± 0.3 °C
CN1CCCNC(=O)c2cccc(c2)C(=O)NCCCN(C)CCCNc2cccc3c2C(=O)c2cccc(c2C3=O)NCCC1 | SAS | RNA-Seq, item: RAD18 mRNA |  | 1 µM, 6 h | reference: untreated cells | log2 fold change | -0.792
CCCC(=O)N1CCN(c2ccc(NC(=O)c3ccc([N+](=O)[O-])o3)cc2Cl)CC1 | Mus musculus | gene silencing, high-content imaging | LDR reporter GFP cells | retest, mean of two runs |  | EC50 | 2510 nM
C[n+]1ccc(/C=N/NC(=O)c2cncc(C(=O)N/N=C/c3cc[n+](C)c4ccccc34)n2)c2ccccc21 | MYC promoter parallel G-quadruplex DNA | UV melting |  | 6 µM, 1 mM potassium, together with: DNA 3 µM |  | delta Tm | 18.7 °C

Repeated from above:
Structure (SMILES) | target or system | assay | test system | setting | scale | quantity | value
Cc1ncsc1-c1ccc(C(C)NC(=O)C2CC(O)CN2C(=O)C(NC(=O)CCCCCCCCCCN2CCCC(Nc3ncc(Cl)c(Nc4ccccc4S(=O)(=O)C(C)C)n3)C2)C(C)(C)C)cc1 (stereo not drawn) | 22Rv1 | RNA-seq, item: SOGA1 mRNA |  | concentration not given | reference: DMSO | log2 fold change | -1.39
O=C(N/N=C/c1ccc(C[n+]2ccccc2)cc1)c1cc(C(=O)N/N=C/c2ccc(C[n+]3ccccc3)cc2)ncn1 | MYC parallel G4 DNA | FRET melting |  | 1 µM, DNA 0.2 µM |  | ΔTm | 2.3 ± 0.3 °C
